Assay results pooled from the literature.
Protocols differ between the studies behind these lines. Values joined by “and” are separate records of one study, mostly repeats; a detail may differ.

CTCTAACTCT — log2 fold change (Salmonella enterica Typhimurium; RNA-seq, measured: SL1344_3728 transcript; peptide, SL1344; 5 µM, 15 min; baseline: untreated control): 1.65
capreomycin — MIC (Mycolicibacterium smegmatis; resazurin microtiter; mc2155; 24 h, 37 °C, 100 µg/mL carbenicillin medium): 1.1 µg/mL
CTCATACTGA — log2 fold change (Salmonella enterica Typhimurium; RNA-seq, measured: udg mRNA; peptide, SL1344; 5 µM, 15 min; baseline: water control): 2.31
colistin — fold enhancement (Escherichia coli; tetracycline activity; tetracycline-resistant; 0.0625 µM, together with: tetracycline; baseline: tetracycline alone): 16 fold
gentamicin — viable count (Escherichia coli; time-kill; 1 x MIC, 15 min): 5.77 log CFU/mL
DAPT — MIC (Bacillus cereus; ATCC 13061): 1.5 µg/mL
Triton X-100 — fold enhancement (Escherichia coli; tetracycline antibacterial activity, potentiator, checkerboard; tet efflux pump expressing; 1700 µM, together with: tetracycline; baseline: tetracycline alone): 2 fold
CTTTCATGCG (PNA, CPP-conjugated) — mRNA level reduction (Salmonella enterica Typhimurium; RT-qPCR, measured: ftsI; peptide, SL1344; concentration not given, 30 min, sublethal dose; baseline: mock): 36%
Polymyxin B — glutathione peroxidase activity (Staphylococcus aureus; CMCC 26003; concentration not given): 3.89 U/mg and 4.25 U/mg and 4.47 U/mg
Polymyxin B — MIC fold change (Escherichia coli; ATCC 25922; concentration not given, together with: KCl 4.5 mM; baseline: no added salt): 2 fold
CAGATACTCT — log2 fold change (Salmonella enterica Typhimurium; RNA-seq, measured: pagN; peptide, SL1344; 5 µM, 15 min; baseline: water): 2.59
polymyxin B — time to eradication (Escherichia coli; ATCC BAA-2452; 1 × MIC): 4 to 5 h
CTCATACTCT — log2 fold change (Salmonella enterica Typhimurium; RNA-seq, measured: fabF mRNA; peptide, SL1344; 5 µM, 15 min; baseline: water control): -1.88
GSGAGIESNV — normalised SPR binding response (human MAGI1-2/6 PDZ construct (MBP fusion); surface plasmon resonance; peptide; concentration not given; higher = stronger binding): 0 normalised RU
LVHYTHCGSLGV — EBV DNA copy number (Epstein-Barr virus; BamHI-W qPCR; peptide, B-NDG humanized mouse, EBV-infected, peripheral blood; 20 mg/kg, day 28): 0 copies and 3160 copies
CTCATTGTCT — MIC (Salmonella enterica Typhimurium; broth microdilution; peptide, SL1344; range over 0.3-10 µM, 24 h, 37 °C, Mueller-Hinton broth): > 10 µM
GSGAGSETSV — normalised SPR binding response (human SCRIB PDZ3-4 tandem (MBP fusion); surface plasmon resonance; peptide; concentration not given; higher = stronger binding): 88.2 normalised RU
colistin — MIC (Acinetobacter baumannii; clinical strain 1E4): > 32 µg/mL
CTCAATCTCT — log2 fold change (Salmonella enterica Typhimurium; RNA-seq, measured: SL1344_3728 transcript; peptide, SL1344; 5 µM, 15 min; baseline: untreated control): 1.88
colistin — MIC (Enterobacter cloacae; broth microdilution; clinical isolate RKI-No_76/15): ≤ 0.5 µg/mL
milbemycin oxime — OD600 (Saccharomyces cerevisiae; cell growth; Pdr5 deleted, Cdr1 overexpressed; 2^-6.644 µg/mL, together with: fluconazole 10 µg/mL): 0.312 and 0.245 and 0.398
CTCATACAGT — log2 fold change (Salmonella enterica Typhimurium; RNA-seq, measured: fabF mRNA; peptide, SL1344; 5 µM, 15 min; baseline: water control): -1.45
maraviroc — viral load decrease (HIV-1 ADA; viral replication; HIV-infected mice, plasma; ip, 120 mg/kg twice daily, 3 weeks post-infection; baseline: untreated HIV-infected mice): 5.2 fold
Polymyxin B — inhibition zone diameter (Escherichia coli; ATCC 25922; 15.6 µg per disc, 24 h, 37 °C): 14 mm
